Measurements of several laboratories.
Every numbered part comes from another study and shows a few of its results, in no order. Changes are numbered by the printed parent chain.

Set 1
Target: CCND1, cyclin fold, Cln2 fusion (human)
Method: yeast growth competition, sequencing
Sample: yeast
Notes: weak parent motif
Relative to: not given
Direction: higher = stronger binding
Endpoint: normalised enrichment score
Starting sequence: RB1 docking peptide (human); PKPLKKLRFDIEG
Variant = PKPLKKLRRDIEG [F9R]; value = -0.595
Variant = PKPLKKLRWDIEG [F9W]; value = -0.283
Variant = PVPLKKLRFDIEG [K2V]; value = 0.448
Variant = PKPLKKRRFDIEG [L7R]; value = -0.00601
Variant = PKPLKKLRFDIEP [G13P]; value = 0.0294
Variant = PKPRKKLRFDIEG [L4R]; value = -0.531
Variant = PKPLAKARFDIEG [K5A L7A]; value = -0.136
Variant = KKPLKKLRFDIEG [P1K]; value = 0.237
Variant = PKPLKKLNFDIEG [R8N]; value = 0.219
Variant = PKPLRKLRLDIEG [K5R F9L]; value = -0.326
Variant = PQPLKKLRFDIEG [K2Q]; value = -0.438
Variant = PKGLKKLRFDIEG [P3G]; value = 0.467
Variant = PKPLKKLPFDIEG [R8P]; value = 0.564
Variant = PKPMKKLRFDIEG [L4M]; value = 0.219
Variant = PKPLKKLRFAIEG [D10A]; value = 0.131
Variant = PKPLKTLRFDIEG [K6T]; value = 0.141
Variant = PKPLHKLRFDIEG [K5H]; value = 0.133

Set 2
Target: Prothrombin, mature alpha-thrombin (F2, Homo sapiens, UniProt P00734)
Method: aptamer microarray, sandwich
Form: DNA with 2'F-ANA
Sample: in vitro
Concentration: 200 nM
Notes: whole 15-mer aptamer, many near background
Added: Cy3 exosite-II aptamer, 400 nM
Direction: higher = stronger binding
Endpoint: mean fluorescence intensity
Sequence: GGTTGGTGTGGTTGG
Modification = 2'F-ANA at 6 8 13 14; value = 180 a.u.
Modification = 2'F-ANA at 2 6 8 9 12 13 14; value = 139 a.u.
Modification = 2'F-ANA at 4 8 10 12 13 14; value = 89.1 a.u.
Modification = 2'F-ANA at 2 3 7 8 12 13 14 15; value = 557 a.u.
Modification = 2'F-ANA at 1 2 7 9 10 11 12 14; value = 64.8 a.u.
Modification = 2'F-ANA at 1 2 6 7 8 10 11 15; value = 72.6 a.u.
Modification = 2'F-ANA at 1 2 3 5 7 9 10 12 13 15; value = 54.1 a.u.
Modification = 2'F-ANA at 1 2 4 9 12 15; value = 264 a.u.
Modification = 2'F-ANA at 1 2 3 5 7 9 10; value = 47.5 a.u.
Modification = 2'F-ANA at 1 2 3 5 6 7 8 13 14; value = 145 a.u.
Modification = 2'F-ANA at 1 2 3 4 6 7 9 11 14 15; value = 56.2 a.u.
Modification = 2'F-ANA at 3 7 8 9 11 12 15; value = 1400 a.u.
Modification = 2'F-ANA at 2 4 5 7 9 10 13 14 15; value = 54.9 a.u.
Modification = 2'F-ANA at 1 2 3 8 9 10 12 13; value = 84.1 a.u.
Modification = 2'F-ANA at 3 4 5 6 7 13 14 15; value = 200 a.u.
Modification = 2'F-ANA at 2 8 13 14; value = 207 a.u.
Modification = 2'F-ANA at 2 4 9 10 11; value = 82.2 a.u.
Modification = 2'F-ANA at 2 3 4 5 6 7 9 11 12 14; value = 48.8 a.u.
Modification = 2'F-ANA at 2 3 7 8 9 11; value = 874 a.u.
Modification = 2'F-ANA at 3 4 7 10 11 12 13 14; value = 221 a.u.
Modification = 2'F-ANA at 2 4 5 9 11 12 13 14 15; value = 48.3 a.u.
Modification = 2'F-ANA at 1 3 8 10 13; value = 258 a.u.
Modification = 2'F-ANA at 3 4 5 6 7 10 12 13 14 15; value = 66.9 a.u.
Modification = 2'F-ANA at 2 7 9 10 12 13 15; value = 156 a.u.
Modification = 2'F-ANA at 1 3 5 6 10 11; value = 50.1 a.u.

Set 3
Target: Interferon regulatory factor 7, full length, phosphomimetic (IRF7, Homo sapiens, UniProt Q92985, residues 1-503, S101K/S471D/S472D/S475D/S476D/S477D/S483D/S484D/S487D)
Method: protein-binding microarray
Form: double-stranded DNA, one strand shown
Sample: in vitro
Concentration: 250 nM
Notes: 60-bp whole probe
Added: salmon DNA 0.4 mg/ml
Relative to: random background probes
Direction: higher = stronger binding
Endpoint: log fluorescence
All sequences stand within: GCCTAGCAC … GTCTTGATTCGCTTGACGCTGCTG
Residues (chain): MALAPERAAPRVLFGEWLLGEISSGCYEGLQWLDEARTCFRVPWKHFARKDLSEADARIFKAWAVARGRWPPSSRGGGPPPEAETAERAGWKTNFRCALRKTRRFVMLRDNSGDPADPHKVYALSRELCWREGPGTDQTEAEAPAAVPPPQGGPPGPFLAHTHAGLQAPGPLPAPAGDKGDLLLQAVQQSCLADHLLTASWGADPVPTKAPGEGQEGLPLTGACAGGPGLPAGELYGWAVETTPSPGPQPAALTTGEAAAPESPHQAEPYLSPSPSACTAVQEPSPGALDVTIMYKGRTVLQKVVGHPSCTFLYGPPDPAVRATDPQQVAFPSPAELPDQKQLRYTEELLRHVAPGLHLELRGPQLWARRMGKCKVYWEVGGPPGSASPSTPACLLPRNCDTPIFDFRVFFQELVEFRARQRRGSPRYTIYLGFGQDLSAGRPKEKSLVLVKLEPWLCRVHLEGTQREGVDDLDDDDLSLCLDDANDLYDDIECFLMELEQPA
Sequence = GACGATTCCAGTTTCGTGACGTGCTAG; value = 2.69 z-score
Sequence = TTGTGTCTGGGCATTTTTTTTGTGCTA; value = -0.999 z-score
Sequence = TCATTTTTGCTTTCCTTACTGTGCTAG; value = 1.96 z-score
Sequence = GACGATATCAGTATCGCGACGTGCTAG; value = -0.159 z-score
Sequence = GACGGTTTCGACATTCGGGACGTGCTA; value = 7.27 z-score
Sequence = TTAGGTGTCGGGTATCGGTTAGTGCTA; value = 0.433 z-score
Sequence = TTAGGGCTGCTTCTCCTTTAGTGCTAG; value = -0.561 z-score
Sequence = GACGGTATCGACGATCGGGACGTGCTA; value = -0.644 z-score
Sequence = GACGGTATCTGTTTCGGGACGTGCTAG; value = 1.7 z-score
Sequence = TTAGGTCTTGGTCTCGGTTAGTGCTAG; value = 1.7 z-score
Sequence = ACTCGTGACCCTCTCAAAGGGTGCTAG; value = -0.301 z-score
Sequence = TTAGGTATCGACTCTGGGTTAGTGCTA; value = 0.542 z-score
Sequence = GACGGTATGGGGACTGGGGACGTGCTA; value = -0.373 z-score
Sequence = TCAGTTCTGCTTCTTAGACTGTGCTAG; value = 1.11 z-score
Sequence = GACGGACTGGGTTCCGGGACGTGCTAG; value = 0.102 z-score
Sequence = TTAGGTCTCCTACTGCTTTAGTGCTAG; value = -0.0115 z-score

Set 4
Target: Histone acetyltransferase KAT6A, both winged helices, GST fusion (KAT6A, Homo sapiens, UniProt Q92794, residues 1-181)
Method: protein binding microarray
Form: double-stranded DNA, one strand shown
Sample: in vitro
Concentration: not given
Notes: 8-mer, flanks averaged, mean of 2 arrays, mostly near background
Relative to: not given
Direction: higher = stronger binding
Endpoint: E-score
Construct (chain): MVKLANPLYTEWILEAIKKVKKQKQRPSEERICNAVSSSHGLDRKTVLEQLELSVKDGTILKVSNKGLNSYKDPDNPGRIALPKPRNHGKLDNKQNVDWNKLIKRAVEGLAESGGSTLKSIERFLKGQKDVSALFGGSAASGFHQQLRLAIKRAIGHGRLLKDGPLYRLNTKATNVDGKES
Sequence = GCAGCTCA; value = -0.164
Sequence = GCTAAAAA; value = 0.00668
Sequence = AGAGCTCG; value = 0.0491
Sequence = AAGTAAAA; value = -0.122
Sequence = CCCACATA; value = -0.053
Sequence = CATAGCGC; value = 0.268
Sequence = GAAATGTA; value = -0.157
Sequence = AACCAGTG; value = -0.114
Sequence = AAGTTGAA; value = -0.205
Sequence = CACCGACC; value = 0.13
Sequence = ATGACTAA; value = -0.138
Sequence = ATGCTGAG; value = -0.0514
Sequence = AACCAGTT; value = -0.0357
Sequence = AAGCGAGA; value = 0.0841
Sequence = CGGTAATA; value = 0.149
Sequence = ATATCGAA; value = 0.0264
Sequence = ATCTCCTA; value = -0.208
Sequence = GCACAGAC; value = 0.0321
Sequence = CCGGCCGG; value = 0.373
Sequence = AACCGCAT; value = 0.245
Sequence = AGTGCCTG; value = -0.214

Set 5
Target: RNA binding protein fox-1 homolog 2, RRM domain, GST-SBP tag (RBFOX2, Homo sapiens, UniProt O43251-10, residues 100-194)
Method: RNA Bind-n-Seq
Form: RNA
Sample: in vitro
Concentration: 365 nM
Notes: natural RNA segment, single round, ends assumed
Relative to: no-protein control
Direction: higher = stronger binding
Endpoint: RBNS enrichment (R)
All sequences stand within: GGGAGUUCUACAGUCCGACGAUC … UGGAAUUCUCGGGUGCCAA
Residues (chain): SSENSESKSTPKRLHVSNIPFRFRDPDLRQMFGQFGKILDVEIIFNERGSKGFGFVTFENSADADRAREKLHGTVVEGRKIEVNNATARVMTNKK
Sequence = UUCUAUGCUAAACUUUGUUCUGUUCAGUUCUAGAGUGUAUACAGAACGAAUUGAUGUGUAACUGUAUGCAGACUGGUUGUAGUGGAACAAAUCUGAUAACUAUGCAGGUU; value = 0.73
Sequence = GUAGAGCUGAGCCUCUCCACUUCAGGGUGUGGCAUCAUGGCUCAGAUGUCAUUUUGAGCUAAAACCCAGUUAGAUGCAGUAAAAAACCACUUUGAGAGAUGGCUUGUGUU; value = 0.48
Sequence = UCAUUUUUAGGAGGUGUGCAUGGAUGCAAUAUAUGAAAAUGGGACAUUCUGGAACUGCUGGUCAGGGGACUUUGUCGCCCUGUGCACUAAAAGGGCCAGAUUUUCAGCAG; value = 6.26
Sequence = AGUUACCAAGAGAAGCUGGAGGGAUACCUCUGAGUGACUGCUGUGUUUCUUCUAUUGUAGACACCAAGUCUCCCUGAGAUUCCUGAUGGGGUAUUACCUACCAAGAUAAU; value = 0.505
Sequence = UACUCAAAGCUCACAUCAUAGGCCGUGCGUUCGCUGGAGGGGGCCCUGGUCUUGGCGCUUCCCUGAUGGACAGAGCUCAAGUUCCAUUUAUAUUAACCGCCACCUGUGGA; value = 0.4
Sequence = UGUGCUCCUAGGCAUCCAGCACAGGUUCUGGCAGGGCACCCCUGCUGGGGUUGGGGGCUGGUCUGUGCAUAAUCCUGGACUGUGAUGGGAACAGCCCAGUGCAGUCUAAA; value = 0.367
Sequence = GGUCAGUUAAAUCUGUGAUAAUGGUUGGAAGUGGGUGGGGUUAUGAAAUUGUAGAUGUUUUUAGAAAAACUUGUGAAUGAAAAUGAAUCCAAGUGUUUCAUGUGAAGAUG; value = 4.02
Sequence = GCACAGAGAAGUGGCCACAGCCUUCCCACCCCACGACCAGAGACUGGCCUGGCCUCACUGCUUUCAAGGACACAGAUGUCUGCUACCCCUCUUGAACUUGGGUGGGGAAC; value = 0.324

For quick reference, copied from above (set 4):
Sequence = ATGCTGAG; value = -0.0514
Sequence = GCACAGAC; value = 0.0321
Sequence = ATGACTAA; value = -0.138
Sequence = AGAGCTCG; value = 0.0491
Sequence = CGGTAATA; value = 0.149
Sequence = AAGCGAGA; value = 0.0841
Sequence = CACCGACC; value = 0.13
Sequence = AACCGCAT; value = 0.245
Sequence = AAGTTGAA; value = -0.205
Sequence = GAAATGTA; value = -0.157
Sequence = AAGTAAAA; value = -0.122
Sequence = AACCAGTT; value = -0.0357
Sequence = AACCAGTG; value = -0.114
Sequence = CCCACATA; value = -0.053
